Measurements of several laboratories.
Every numbered part comes from another study and shows a few of its results, in no order.

Sample 1
Target: RNA binding protein fox-1 homolog 2, RRM domain, GST-SBP tag (RBFOX2, Homo sapiens, UniProt O43251-10, residues 100-194)
Technique: RNA Bind-n-Seq
Form: RNA
Sample: in vitro
Concentration: 365 nM
Setting: natural RNA segment, single round, ends assumed
Baseline: no-protein control
Reading: higher = stronger binding
Shared flanks, not repeated: GGGAGUUCUACAGUCCGACGAUC … UGGAAUUCUCGGGUGCCAA
Target sequence (chain): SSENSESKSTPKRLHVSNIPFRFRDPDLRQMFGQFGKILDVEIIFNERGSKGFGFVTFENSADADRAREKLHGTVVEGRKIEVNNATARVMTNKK
| Strand | RBNS enrichment (R) |
| --- | --- |
| CUCCCCAAAUUGGGCAUUUAAUUCAUCUUUAAACUGGUUGUUCUGUUAGUCGCUAACUUAGUAAGUGCUUUUCUUAUAGAACCCCUUCUGACUGAGCAAUAUGCCUCCUU | 0.314 |
| UUAAAGGCUGAGUUAUUUUUGAAUGUCAUGUUUAUGUCAUAGACGUAGUUUUCGCAUCCUUGAAUUAAACUGCCUUAACUCCUUUUGUGGUAUAAGCAAAACUACAUGGA | 0.405 |
| UUAUAACAAAAUAAUUAUGGUUGAAAUGUCUGUGGUUCCUUGGAAAUGCUGCGCUCUUUGUGUUUUUCCAUCAUUAGUGCAGUUGGAAUGAAUGUGUAUAGGUCAGAGGU | 3.28 |
| UGAAGUGCUUUACUUUUUGCACAAUUUUAAUAGCUUGCUAUUCAGUAAUACAUUAUAGUGAAUUCAUGAUCAAGGUUUCCUUAAAUUUAGCAUUGCAUUUCAGUACUGAC | 0.44 |
| CCCCCGCCCGUGUGUGUAAACUGGCGAUGUGCCAGCUAGGAUGAAGCUUGCCACUCGGCUAGCGAAAAUAAUUAACAUUAUUAUGAGAAAGUGGAUUUAUCUAAAGUGGA | 1.26 |
| CUUCUUGGUUAUUUUCAGAUGAACAGUAACUGCUACACUCUUGAAAGCACUUAAAAGUGCAAGCAUGUCCUAAAUAGCCAUUUAACCUGGUAAAACAUAGGCUUUUCUGU | 1.08 |
| ACCCGCCCCAUACCAGCCCUUGGCUUGGGUCCUUUUUCUCCAGAAAAACAUAUAUUUUGCAGAGCUCCACAUACAGAAACACAUUAUUUUGCAGAAAUAAGUGUUUGUAA | 0.577 |
| CUCGGCUCCCUGCCGAGGCUCAGCUCUUGGGCAAGUUGGGACUUGGACCUGGCCUGAAGACUGAUUGGCUGGAAGGUUGGUUGCAGGAAAGACCGGAGCCCCGCAGGAGU | 0.474 |
| GGGAACGAGGGAUGAUGAUAACCCUGCCCAUCUGGGAGCCUGAGGACCUGACUAAGGGGUAAGCAGGCCCAGACUGUGGCUCUUGGGUCCUAGAGGGAACCCCCUGUGGU | 0.594 |
| ACCGCCUCCGGAUGGAGCAGAGCCUCACGGACAUUCCUGAGGAGCCCAGGAAAGGGCCAGCUUGGCGGGAAGGGGCUCUCCCUAGGGGUGCAGCUGGGAGGAGGUCCGAG | 1.13 |
| UAUCUCAGUUCAUCAGAGGGCCUGAGAAGCUGCGGGGCAGUGUAAAGUAAAGUAUGCUGGGCUGGUGGUGGUCAGCCUUCCCCUUGCCAAGAAGAGAGCAAUUGAAUCCU | 0.56 |
| CUCGGUGGCAGAGCCUGGCUAGUGACUACCAUGUUGGUCAGUGCAGCCUGCUAUCACUCCUUCAAGCACAGUUCUGAACCCAGUCCAUCCAUCCAGUGGGCCAGCUCCCA | 0.428 |

Sample 2
Target: Sal-like protein 4, full length isoform B (SALL4, Homo sapiens, UniProt Q9UJQ4-2, residues 1-616)
Technique: universal PBM
Form: double-stranded DNA, one strand shown
Sample: in vitro
Concentration: not given
Setting: 8-mer, flanks averaged, mean of replicates
Reading: higher = stronger binding
Target sequence (chain): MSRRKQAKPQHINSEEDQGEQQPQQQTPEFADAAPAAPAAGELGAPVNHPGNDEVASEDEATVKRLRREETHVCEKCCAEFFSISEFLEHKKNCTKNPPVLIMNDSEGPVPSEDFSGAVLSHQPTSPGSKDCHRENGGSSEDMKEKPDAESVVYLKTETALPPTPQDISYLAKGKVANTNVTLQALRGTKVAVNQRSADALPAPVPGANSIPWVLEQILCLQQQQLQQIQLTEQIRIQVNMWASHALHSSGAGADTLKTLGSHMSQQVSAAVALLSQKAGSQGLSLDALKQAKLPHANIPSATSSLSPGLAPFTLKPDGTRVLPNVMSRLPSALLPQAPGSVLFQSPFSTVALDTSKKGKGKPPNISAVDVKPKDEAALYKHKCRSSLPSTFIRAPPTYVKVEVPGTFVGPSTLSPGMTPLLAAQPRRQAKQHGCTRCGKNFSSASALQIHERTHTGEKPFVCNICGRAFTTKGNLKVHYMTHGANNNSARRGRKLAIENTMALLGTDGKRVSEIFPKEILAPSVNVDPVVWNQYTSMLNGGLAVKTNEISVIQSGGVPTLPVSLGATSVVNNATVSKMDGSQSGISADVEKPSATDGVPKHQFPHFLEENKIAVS
| Strand | E-score |
| --- | --- |
| AGCTTAGA | 0.0261 |
| GAATCTCC | -0.119 |
| GGGGTTAC | -0.31 |
| CGGAAGCA | -0.0942 |
| TCACGCCA | -0.0414 |
| GGCCTACA | -0.132 |
| ACCACGCA | -0.159 |
| AGGTGAGA | -0.00605 |
| AAATAAAA | 0.318 |
| GAGTAATA | 0.341 |
| GCGCGAAC | -0.303 |
| GTAATGAA | 0.216 |
| CAAGTTTC | 0.125 |
| ACTCGCAC | -0.293 |
| CGGCCGTC | -0.354 |
| CTGCACTA | 0.158 |
| ACCGGTGC | -0.314 |
| CATCCCTC | -0.179 |
| CCCGCAGG | -0.42 |
| CCAGTGCC | -0.309 |
| CGTAGATC | -0.00542 |

Sample 3
Target: RING finger protein unkempt homolog, zinc fingers 1-6, GST-SBP tag (UNK, Homo sapiens, UniProt Q9C0B0, residues 30-357)
Sequence of UniProt Q9C0B0 (30-357, looked up): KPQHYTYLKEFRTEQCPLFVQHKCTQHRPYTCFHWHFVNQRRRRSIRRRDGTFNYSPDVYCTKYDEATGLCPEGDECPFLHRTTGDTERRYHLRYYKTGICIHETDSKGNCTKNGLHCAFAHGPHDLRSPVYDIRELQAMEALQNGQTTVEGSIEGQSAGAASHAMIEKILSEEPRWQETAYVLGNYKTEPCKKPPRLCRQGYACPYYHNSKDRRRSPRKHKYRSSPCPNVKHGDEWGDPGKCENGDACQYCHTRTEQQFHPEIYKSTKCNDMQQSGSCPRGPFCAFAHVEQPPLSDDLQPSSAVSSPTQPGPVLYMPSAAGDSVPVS
Technique: RNA Bind-n-Seq
Form: RNA
Sample: in vitro
Concentration: not given
Setting: RNA with constant flanks, human and mouse sites, ends assumed
Baseline: input RNA pool
Reading: higher = stronger binding
Shared flanks, not repeated: GGGAGUUCUACAGUCCGACGAUC … CAACAGAGGAUUGAGCAUCA
| Strand | bound/input enrichment [ratio] |
| --- | --- |
| GUCAUCAGCUCAAUGAGCUCCCUUUCUGAGUACUGCCUGCCUUCCAUUCUACGUACAUUAUUUGACUGGUAUAAAAGGCAAAAUGGCAUUGAGGAUGAAUCACAUGAAUACAGACCAAGA | 0.171 |
| GUGUCAUUUGGGGACACGCCACUGACACAGAGCAUCCAGGCCAAUGUGACGGUGGCCCCCGAGCGCCUGGUGCCCAUCAUUGAGGGUGGCUCAUACCGCGUGUGGUCAGACACACGGGAC | 0.128 |
| ACUGGUGUGAUCAUUGUUGGACUGCAGGGGGAAGCUGAGCGUGGACCCCGCUUUCCCCGGGCUAGCAGUGAGGCUACGAUUCGUGAGAAUGCGCCCCCAGGGACUCCUAUUGUCUCCCCC | 0.127 |
| GCAUCUUCUAAUACUGACAUGACUUAUGGAGGGCUGGCAUCACCAAAGCUAGAUGUUUCAUAUGAACCAAUGAUAGUGAAGGAAGCUCGAUAUAUUGCCAUAACAAUGAUGAAGGUUUAU | 0.276 |
| UUAGAUGUGACUGUACAGUCCUUUGGAUGGUCUGAUAGAGCAAAGGUAAAAACAGAUGAUAUAGCAAGAAUUUAUCAGCCUAAGCGUUAUGCUUUGUCACCCAAGACAACGAUUACAAUG | 0.294 |
| CUAUACCUGAAACUCACAUUUGACCUCAUAGAGAAAGGCUACCUAGUGCUAAAGAGUUCUAGCUACAAAGUCGUUCCUGUUUCGCUCUCUGAGGUUUAUUUACUCCAGUGCAAUAUGAAG | 0.236 |
| GCAAAAGUUGCACAGAAGUCUUACGGAAAUGAAAAACGAUUUUUUUGCCCUCCUCCUUGUGUGUAUCUUAUGGGCAGUGGUUGGAAGAAAAAAAAAGAGCAAAUGGAACGAGAUGGAUGU | 0.266 |
| AAGCGAUUAGCAGCUCAGUUUAUACCAAAAUUCUUUAAGCAUUUUCCAGAGCUGGCUGAUUCUGCUAUCAAUGCACAGUUAGACCUCUGUGAGGAUGAAGAUGUGUCAAUACGACGUCAA | 0.246 |
| AAGAACUUCAAGGGUACUAUUGAAGAACUGGCUCCAAAUCAAUAUGUGAUUAGUGGUGAAGUAGCUAUUCUUAAUUCUACAACCAUUGAAAUCUCAGAGCUUCCCGUCAGAACAUGGACC | 0.283 |
| CAUGGAAAUAUUAUCUACAUCCACAUAAGAGAUAAAACCUGGGAUGUACAUGAAUAUUUGAAUAGUCUUUUUGAAGAAUUAAAAUCUUGGAGAGAUGUUUAUUGGCGUUUGUGGGGCACA | 0.628 |
| UUCCUCUGCUUGUUUUGAGCCCACCUUGGGGGCUGCUCGUGUAAUGAGAUUUUGAGAAGGUAGCUCUAGCCCAGGUGGGGUCCAGGUUUAGAGUCAGUAGCAGAUGCACCCCACACAAGC | 0.449 |

Sample 4
Target: Histone acetyltransferase KAT6A, both winged helices, GST fusion (KAT6A, Homo sapiens, UniProt Q92794, residues 1-181)
Technique: protein binding microarray
Form: double-stranded DNA, one strand shown
Sample: in vitro
Concentration: not given
Setting: 8-mer, flanks averaged, mean of 2 arrays, mostly near background
Baseline: not given
Reading: higher = stronger binding
Target sequence (chain): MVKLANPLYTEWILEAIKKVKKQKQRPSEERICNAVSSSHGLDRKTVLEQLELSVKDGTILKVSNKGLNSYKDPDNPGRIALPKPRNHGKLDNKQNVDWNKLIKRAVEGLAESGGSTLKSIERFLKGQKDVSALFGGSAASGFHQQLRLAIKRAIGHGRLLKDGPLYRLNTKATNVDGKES
| Strand | E-score |
| --- | --- |
| CGATGATA | 0.134 |
| GCAAGTTA | -0.0767 |
| ATACTACC | 0.0293 |
| AGTCGCCC | -0.158 |
| CACGTTAG | -0.136 |
| AAACGGAG | 0.192 |
| CCTCGGGA | 0.0267 |
| CCTTGCAC | -0.143 |
| ATTAGACA | -0.0885 |
| GCGCTCAC | 0.261 |
| CTTCACAA | -0.194 |
| CCTCAGAA | -0.0888 |
| CAAACCTG | -0.0991 |
| AAGAGGGT | -0.2 |
| CCTACTCC | -0.243 |
| GCCGCCCA | 0.17 |
| GAATCCGC | 0.14 |
| CTTCGCAA | -0.0252 |
| CACTTGCA | -0.266 |
| CATTCCAA | -0.0378 |
| ATCGTCAG | -0.176 |
| CCCTTAAG | -0.0942 |
| GCTAAAGC | -0.00517 |
| ACCATTCG | -0.0622 |
| ACCTGCTA | -0.0855 |

Repeated from above (sample 4):
| Strand | E-score |
| --- | --- |
| CCTACTCC | -0.243 |
| GCCGCCCA | 0.17 |
| GAATCCGC | 0.14 |
| CTTCGCAA | -0.0252 |
| CACTTGCA | -0.266 |
| CATTCCAA | -0.0378 |
| ATCGTCAG | -0.176 |
| CCCTTAAG | -0.0942 |
